Measured values collected from several papers.
Compare with care: the assays were run in different laboratories. Numbers after ± are the reported error.

| Structure (SMILES) | assay | test system | conditions | how to read | quantity | result |
| --- | --- | --- | --- | --- | --- | --- |
| CCCC[C@@H]1NC(=O)[C@@H](NC(=O)[C@H](CCC(=O)O)NC(=O)CNC(=O)CN2CCN(CC(=O)O)CCN(CC(=O)O)CCN(CC(=O)O)CC2)CCCCNC(=O)C[C@@H](C(N)=O)NC(=O)[C@H](C(C)C)NC(=O)[C@@H]2CCCN2C(=O)[C@H](CCCNC(=N)N)NC(=O)CNC(=O)[C@H](Cc2c[nH]c3ccccc23)NC(=O)[C@H](CCCNC(=N)N)NC(=O)[C@@H](Cc2ccccc2)NC(=O)[C@H](Cc2c[nH]cn2)NC(=O)[C@H](CCC(=O)O)NC1=O [gallium-67 labelled] |  | C57 mice with B16/F1 melanoma | intravenous, 0.037 MBq/mouse, 4 h | baseline: tumour over lung | tumour to lung ratio | 73.8 |
| Cc1ccccc1/N=N/c1ccc(/N=N/c2c(O)ccc3ccccc23)c(C)c1 |  | rat whole blood QC samples | 5.0 µg/L, 12 h, room temperature, short-term stability |  | measured concentration | 5.15 µg/L |
| CC(C)(O)c1ncc([S@](N)(=O)=NC(=O)Nc2c3c(cc4c2CCC4)CCC3)s1 |  | human, plasma | oral, 600 mg, single dose, fasted, healthy volunteers |  | Cmax | 59100 ng/mL |
| CCCC[C@H](NC(=O)[C@H](CCC(=O)O)NC(=O)CNC(=O)CN1CCN(CC(=O)O)CCN(CC(=O)O)CCN(CC(=O)O)CC1)C(=O)N[C@H]1CC(=O)NCCCC[C@@H](C(N)=O)NC(=O)[C@H](Cc2c[nH]c3ccccc23)NC(=O)[C@H](CCCNC(=N)N)NC(=O)[C@@H](Cc2ccccc2)NC(=O)[C@H](Cc2c[nH]cn2)NC1=O [indium-111 labelled] |  | C57 mouse, female, B16/F1 melanoma, urine | intravenous, 0.037 MBq, 4 h |  | urinary excretion | 91.4 ± 1.85% |
| COc1cc(NC(C)=O)c2c(c1O)-c1c(OC)c(OC)cc3c1C(C2)N(C)CC3 (centres unmarked) |  | rat heart homogenate | 100 µg/mL, 40 d, -20 °C, long-term storage |  | remaining compound | 97.3 ± 3.6% |
| CC[C@H](C)[C@H](NC(=O)[C@@H]1CCCN1C(=O)CNC(=O)[C@H](Cc1ccccc1)NC(=O)[C@H](CC(N)=O)NC(=O)[C@H](CC(N)=O)NC(=O)[C@H](CO)NC(=O)[C@H](CO)NC(=O)[C@H](Cc1c[nH]cn1)NC(=O)[C@@H](NC(=O)[C@H](CC(C)C)NC(=O)[C@H](Cc1ccccc1)NC(=O)[C@H](CC(N)=O)NC(=O)[C@H](C)NC(=O)[C@H](CC(C)C)NC(=O)[C@H](CCCNC(=N)N)NC(=O)[C@H](CCC(N)=O)NC(=O)[C@@H](NC(=O)[C@H](C)NC(=O)[C@@H]1CSSC[C@H](NC(=O)[C@@H](N)CCCCN)C(=O)N[C@@H](CC(N)=O)C(=O)N[C@@H]([C@@H](C)O)C(=O)N[C@@H](C)C(=O)N[C@@H]([C@@H](C)O)C(=O)N1)[C@@H](C)O)C(C)C)C(=O)N[C@@H](CC(C)C)C(=O)N[C@@H](CO)C(=O)N[C@@H](CO)C(=O)N[C@H](C(=O)N[C@@H](CC(N)=O)C(=O)N[C@H](C(=O)NCC(=O)N[C@@H](CO)C(=O)N[C@@H](CC(N)=O)C(=O)N[C@H](C(=O)N[C@@H](Cc1ccc(O)cc1)C(N)=O)[C@@H](C)O)C(C)C)[C@@H](C)O | ion mobility mass spectrometry | nitrogen drift gas | monomer ion charge +3 |  | collision cross section | 550 ± 7.8 Å² |
| CNC(=O)N[C@]1(C)CCC[C@@]2(C)C3CC[C@@]4(C)C[C@]3(CCC21)CC4=O (single isomer, unassigned) |  | processed rat plasma | 40 ng/mL, 24 h, 4 °C, autosampler stability | baseline: nominal concentration | relative error | -0.8% |
| Cc1ccc(OCC(=O)O)cc1 |  | Sprague-Dawley rat Crl:CD(SD), female, plasma | oral, 10 mg/kg/day of parent drug, day 90, 90-day repeated dosing |  | t1/2 | 2.79 h |
| COc1cc(/C=C/C(=O)N2CCc3ccccc3C2)ccc1O[11CH3] | PET-CT imaging | C57BL/6 mouse, male, liver | intravenous, dynamic scan over 60 min |  | maximum uptake | 24.3 ± 0.16 %ID/cc |
| NCCCC(=O)OCC(=O)c1ccc(O)c(C(F)(F)F)c1 | pump-probe transient absorption | water |  |  | triplet lifetime | 0.39 ns |
| CSCOC1C(=O)C2(C)C(OCSC)CC3OCC3(OC(C)=O)C2C(OC(=O)c2ccccc2)C2(O)CC(OC(=O)C(O)C(C=C(C)C)NC(=O)OC(C)(C)C)C(C)=C1C2(C)C (centres unmarked) |  | female Sprague-Dawley rat, plasma | intravenous, 1 mg/kg |  | AUC(0-inf) | 167 ng·h/mL |
| O=c1nc(NO)ccn1[C@@H]1O[C@H](CO)[C@@H](O)[C@H]1O | measured: CYP2C8 | rat, arthritis model, liver | oral, 80 mg/kg twice daily, 5 days | baseline: untreated arthritic rats | protein level | 0.3 fold |
| CC(C)CCN(c1nc(C#N)nc(NC2COC2)n1)C(C)c1ccc(F)cc1 (centres unmarked) |  | female CD-1 mice | intraperitoneal, 10 mg/kg, 7 h |  | brain concentration | 13.8 ng/g |
| Cc1c(C(=O)Nc2ccn(C)n2)ncn1Cc1cccc(C(F)(F)F)c1 |  | C57BL/6 mice, non-transgenic, plasma | oral, drinking water, 50 mg/kg daily, 10 days |  | concentration at time point | 238 ± 88.4 ng/mL |
| CN(C)c1ccc(/C=C/c2cc(/C=C3\Sc4ccccc4N3CCCN3CCCC3)c3ccccc3[n+]2C)cc1 |  | Sprague-Dawley rat, female, plasma | intravenous, 1.5 mg/kg, 2 h |  | compound remaining in plasma | 40% |
| CSc1ccc([C@H]2C[C@@]3(C)[C@@H](CC[C@@]3(O)C(F)(F)C(F)(F)F)[C@@H]3CCC4=CC(=O)CCC4=C32)cc1 |  | human liver microsomes | 100 % absorption assumed |  | maximal oral bioavailability | 31% |
| CCCC[C@H](NC(=O)CNC(=O)CNC(=O)CN1CCN(CC(=O)O)CCN(CC(=O)O)CC1)C(=O)N[C@H]1CC(=O)NCCCC[C@@H](C(N)=O)NC(=O)[C@H](Cc2c[nH]c3ccccc23)NC(=O)[C@H](CCCNC(=N)N)NC(=O)[C@@H](Cc2ccccc2)NC(=O)[C@H](Cc2c[nH]cn2)NC1=O [copper-64 labelled] |  | female C57 mouse, B16/F1 melanoma | intravenous, 0.037 MBq, 24 h | baseline: tumour over blood | uptake ratio | 42.5 |
| N=C(N)NCCC[C@@H]1NC(=O)[C@H](Cc2c[nH]c3ccccc23)NC(=O)[C@@H](CC2CCCCC2)NC(=O)[C@@H]2CCCN2C(=O)[C@@H](NC(=O)CCc2ccccc2)CCCNC1=O |  | C57BL/6J mouse, spinal cord | intravenous, 1 mg/kg, single dose, two-compartment model |  | distribution rate constant (K12) | 19.7 h⁻¹ |
| CC(C)[C@H](NC(=O)[C@@H]1CCCN1C(=O)[C@H](CCCNC(=N)N)NC(=O)[C@H](CS)NC(=O)[C@H](Cc1c[nH]c2ccccc12)NC(=O)[C@H](CCCNC(=N)N)NC(=O)[C@@H](Cc1ccccc1)NC(=O)[C@H](Cc1c[nH]cn1)NC(=O)[C@H](CCC(=O)O)NC(=O)[C@H](CS)NC(=O)[C@H](CS)NC(=O)CNC(=O)[C@@H]1CC(=O)N[C@@H](CCCNC(=N)N)C(=O)NCC(=O)N[C@@H](CC(=O)O)C(=O)N[C@H](Cc2ccc(O)cc2)C(=O)N1)C(N)=O [technetium-99m labelled] |  | C57 mice B16/F1 melanoma female | iv, 2 h, together with: NDP-MSH blockade | baseline: tumour over lung | tumour-to-tissue ratio | 0.9 |
| CCCC[C@H](NC(=O)CN1CCC(NC(=O)CN2CCN(CC(=O)O)CCN(CC(=O)O)CCN(CC(=O)O)CC2)CC1)C(=O)N[C@H]1CC(=O)NCCCC[C@@H](C(N)=O)NC(=O)[C@H](Cc2c[nH]c3ccccc23)NC(=O)[C@H](CCCNC(=N)N)NC(=O)[C@@H](Cc2ccccc2)NC(=O)[C@H](Cc2c[nH]cn2)NC1=O [gallium-68 labelled] | biodistribution | C57BL/6J mouse male tumour-bearing | 1 h post injection, unblocked | baseline: tumour over muscle | tumour to muscle ratio | 73.6 ± 30.5 |
| NC12CNCCNCC(NCc3ccc(CNC(=O)CCCC(=O)NCc4ccc(-c5nncnn5)cc4)cc3)(CNCCNC1)CNCCNC2.[64Cu+2] | OLINDA dosimetry | lower large intestine wall | pretargeting, 120-h interval |  | mean absorbed dose | 0.04 rad/mCi |
| O=c1c(O)cccn1CCCN1CCN(CCCn2cccc(O)c2=O)CC1 |  | hydroxypyridinone groups |  | baseline: pKa3 over pKa2 | pKa difference | 2 |
| CN1CCC[C@]1(C)/C=C/S(=O)(=O)NC(=O)Nc1c2c(cc3c1CCC3)CCC2 |  | human, plasma | oral, 100 mg, single dose, healthy volunteers |  | AUC(0-t) | 92300 ng·h/mL |
| COc1ccc([C@@H]2CC(=O)c3c(O)cc(O[C@@H]4O[C@H](CO[C@@H]5O[C@@H](C)[C@H](O)[C@@H](O)[C@H]5O)[C@@H](O)[C@H](O)[C@H]4O)cc3O2)cc1O |  | rat plasma | 31.25 ng/mL, three freeze-thaw cycles | baseline: nominal concentration | relative error | -2.49% |
| COc1ccc2cc(-c3ccc(-c4ccc(C)cn4)nc3)oc2c1 | TCSPC | DMF |  |  | fluorescence lifetime | 1.8 ns |
| COc1cc2c(cc1OC)CN(CCCCn1ccc3cc(OCC[18F])ccc31)C2 |  | ICR mice, male | intravenous, 280 kBq, 120 min | baseline: uptake at 2 min | brain washout | 42% |

Some of these lines once more:
| Structure (SMILES) | assay | test system | conditions | how to read | quantity | result |
| --- | --- | --- | --- | --- | --- | --- |
| CCCC[C@H](NC(=O)CNC(=O)CNC(=O)CN1CCN(CC(=O)O)CCN(CC(=O)O)CC1)C(=O)N[C@H]1CC(=O)NCCCC[C@@H](C(N)=O)NC(=O)[C@H](Cc2c[nH]c3ccccc23)NC(=O)[C@H](CCCNC(=N)N)NC(=O)[C@@H](Cc2ccccc2)NC(=O)[C@H](Cc2c[nH]cn2)NC1=O [copper-64 labelled] |  | female C57 mouse, B16/F1 melanoma | intravenous, 0.037 MBq, 24 h | baseline: tumour over blood | uptake ratio | 42.5 |
| CCCC[C@@H]1NC(=O)[C@@H](NC(=O)[C@H](CCC(=O)O)NC(=O)CNC(=O)CN2CCN(CC(=O)O)CCN(CC(=O)O)CCN(CC(=O)O)CC2)CCCCNC(=O)C[C@@H](C(N)=O)NC(=O)[C@H](C(C)C)NC(=O)[C@@H]2CCCN2C(=O)[C@H](CCCNC(=N)N)NC(=O)CNC(=O)[C@H](Cc2c[nH]c3ccccc23)NC(=O)[C@H](CCCNC(=N)N)NC(=O)[C@@H](Cc2ccccc2)NC(=O)[C@H](Cc2c[nH]cn2)NC(=O)[C@H](CCC(=O)O)NC1=O [gallium-67 labelled] |  | C57 mice with B16/F1 melanoma | intravenous, 0.037 MBq/mouse, 4 h | baseline: tumour over lung | tumour to lung ratio | 73.8 |
